Results pooled from the literature.
Every numbered part comes from another study and shows a few of its results, in no order. Changes are numbered by the printed parent chain.

Series 1 — technique: RNA Bind-n-Seq; molecule type: RNA; sample: in vitro; tested at: 200 nM; notes: whole 134-nt RNA, ends assumed; with: 150 mM KCl; relative to: input library; direction: higher = stronger binding
Target: Fragile X messenger ribonucleoprotein 1, C-terminal low-complexity region (Fmr1, Mus musculus, UniProt P35922)
Strand	log2 enrichment
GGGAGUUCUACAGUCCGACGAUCGUCCUGUGCUACACAUCGUAUGUACCGAAUCGGAAAAAGGUUUUUUUGGUUUUUUUGGAAAGUAUUAUGUUACGCCGUUCGGAUCUGCACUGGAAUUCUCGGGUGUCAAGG	-1.28
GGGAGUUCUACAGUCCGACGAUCACCAUGCAGGUGGGCAUCUUUGGGAAGUGGGGCAAGGGGGGGAUAGGUAGGGGGGUAACACUUUGGGAACAGGUGGUCCCAGGUCGUUUCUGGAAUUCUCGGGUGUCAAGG	0.548
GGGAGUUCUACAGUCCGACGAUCAAGUCCUGUGCUACACAUCGUAUGUACCGAAUCGGGAAAGGGAGGGUUUUUUUGGGAAAGUAUUAUGUUACGCCGUUCGGAUCUGCACUUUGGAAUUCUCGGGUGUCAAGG	0.777
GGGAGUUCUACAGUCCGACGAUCGCAGGAAGUAAAAACAAAUGAAAAUGCUUCGGAUAGUGGCAGGGGUGGGGGUUGCUAAGGAAAGGGUGGGAUGGGAGUGGGUAAAGAGUUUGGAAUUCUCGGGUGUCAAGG	0.2
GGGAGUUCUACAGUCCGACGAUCUCCUGUGCUACACAUCGUAUGUACCGAAUCGGGGAAAAAAAGGGGUGGGGUUUUUGGGGAAAGUAUUAUGUUACGCCGUUCGGAUCUGCAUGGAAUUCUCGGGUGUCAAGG	0.708
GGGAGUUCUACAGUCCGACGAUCUGGGAGGUGGAUUUUGUUUAUUUUUUUAGCUCAUUUCCAGGGGUGGGAAUUUUUUUUUAAUAUGGGUCAUGAAUAAAGUUGUUUUUGAAAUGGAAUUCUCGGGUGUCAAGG	0.217
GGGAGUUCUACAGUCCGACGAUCCCUCAAGUCCUGUGCUACACAUCGUAUGUACCGAAUCGGUGGAAAGGAAAGGAAAGUAUUAUGUUACGCCGUUCGGAUCUGCACUUCCAGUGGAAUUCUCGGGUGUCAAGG	0.0951
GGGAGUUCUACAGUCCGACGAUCUCCUGUGCUACACAUCGUAUGUACCGAAUCGGGGUUUUUUUGGGGAAAAAGGGGUGGGGAAAGUAUUAUGUUACGCCGUUCGGAUCUGCAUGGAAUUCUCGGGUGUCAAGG	0.729
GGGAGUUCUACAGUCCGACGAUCUGUGCUACACAUCGUAUGUACCGAAUCGGGGCCCCCCCGGCCCCCCCGGGGCCCCCCCGGGGAAAGUAUUAUGUUACGCCGUUCGGAUCUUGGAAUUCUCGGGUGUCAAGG	-1.54
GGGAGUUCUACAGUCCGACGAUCCCUCAAGUCCUGUGCUACACAUCGUAUGUACCGAAUCGGUGGUGGGGUGGGGAAAGUAUUAUGUUACGCCGUUCGGAUCUGCACUUCCAGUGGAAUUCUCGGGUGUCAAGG	0.392
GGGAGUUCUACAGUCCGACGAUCUUAAGGAAGGACACUGAGUCAUGCACAAGUCCUUGCCUUCUUGGUGCCCCUCGGAAAGCACAAGACCCCUCCUCUGCUGGGUGUGAUCAAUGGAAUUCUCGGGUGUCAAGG	-0.0827
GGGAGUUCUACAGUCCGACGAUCCUCAAGUCCUGUGCUACACAUCGUAUGUACCGAAUCGGGGUUGGUUGGGUUGGGAAAGUAUUAUGUUACGCCGUUCGGAUCUGCACUUCCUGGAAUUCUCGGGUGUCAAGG	0.866
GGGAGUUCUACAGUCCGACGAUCAGGUCAUGGAUCAAAAAGAACAUAAAUUGAAUGGGAAGGUGAUUGAUCCUAAAAGGGCCAAAGCCAUGAAAACAAAAGAGCCGGUUAAAAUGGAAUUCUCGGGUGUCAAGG	-1.11
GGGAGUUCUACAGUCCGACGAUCAAGUCCUGUGCUACACAUCGUAUGUACCGAAUCGGGUUUUUUUGGGUGGGAAAGGGAAAGUAUUAUGUUACGCCGUUCGGAUCUGCACUUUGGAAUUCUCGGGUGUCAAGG	0.69

Series 2 — technique: universal PBM; molecule type: double-stranded DNA, one strand shown; sample: in vitro; tested at: 600 nM; direction: higher = stronger binding
Target: Sal-like protein 4, full length isoform A (SALL4, Homo sapiens, UniProt Q9UJQ4, residues 1-1053)
Sequence of UniProt Q9UJQ4 (whole entry, looked up): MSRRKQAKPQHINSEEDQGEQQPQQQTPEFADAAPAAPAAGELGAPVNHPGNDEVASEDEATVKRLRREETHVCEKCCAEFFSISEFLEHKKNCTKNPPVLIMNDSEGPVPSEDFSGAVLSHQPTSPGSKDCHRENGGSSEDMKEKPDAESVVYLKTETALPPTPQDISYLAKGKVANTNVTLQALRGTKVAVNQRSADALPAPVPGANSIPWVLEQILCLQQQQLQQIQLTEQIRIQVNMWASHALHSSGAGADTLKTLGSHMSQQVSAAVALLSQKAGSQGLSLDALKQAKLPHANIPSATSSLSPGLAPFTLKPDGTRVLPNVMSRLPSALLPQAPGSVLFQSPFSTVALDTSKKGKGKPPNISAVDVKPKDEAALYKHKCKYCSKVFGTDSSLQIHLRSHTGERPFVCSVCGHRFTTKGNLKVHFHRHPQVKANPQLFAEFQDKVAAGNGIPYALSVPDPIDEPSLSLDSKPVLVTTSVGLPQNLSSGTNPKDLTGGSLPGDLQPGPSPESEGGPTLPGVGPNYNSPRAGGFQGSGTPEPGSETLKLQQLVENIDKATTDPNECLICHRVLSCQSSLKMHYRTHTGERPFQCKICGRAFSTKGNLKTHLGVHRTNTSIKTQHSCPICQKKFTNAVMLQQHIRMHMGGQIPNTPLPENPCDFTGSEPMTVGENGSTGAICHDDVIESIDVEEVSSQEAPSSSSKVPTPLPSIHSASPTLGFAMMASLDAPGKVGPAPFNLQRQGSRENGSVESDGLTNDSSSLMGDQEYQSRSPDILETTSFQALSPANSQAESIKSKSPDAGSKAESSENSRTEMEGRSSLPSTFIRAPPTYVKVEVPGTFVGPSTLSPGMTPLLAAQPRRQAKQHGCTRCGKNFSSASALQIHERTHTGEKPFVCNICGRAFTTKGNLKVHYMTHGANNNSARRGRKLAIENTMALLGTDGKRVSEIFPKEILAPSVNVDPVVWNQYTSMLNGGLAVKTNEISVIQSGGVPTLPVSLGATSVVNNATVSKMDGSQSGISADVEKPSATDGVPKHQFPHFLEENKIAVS
Notes: 8-mer, flanks averaged, mean of replicates
Strand	E-score
AAACCCAG	-0.0771
CGGCTAGA	-0.186
ATGACCAC	-0.0375
CCTCTCCA	-0.12
ACTGTTCG	0.0687
CTGGTATC	-0.12
AATCTTCT	-0.0179
GTCAGGCA	-0.00594
AGAATTTG	0.142
AGTGACGC	-0.243
CTATGCAA	0.0664
AAAGGACT	-0.0219
CGTGGGCA	-0.266
CGTTCAAA	0.0255
AAGCGCCT	-0.0987
CCGACGTC	-0.295
CTTAATCC	0.0317
GTAGGGAC	-0.0807
CGCACAGA	-0.0559
ATATTCCG	0.259
GTTGAGTA	0.135
CAATCGGC	-0.115
AAAATAGA	0.357

Series 3 — target: CCNA1, cyclin fold, Cln2 fusion (human); technique: yeast growth competition, sequencing; sample: yeast; notes: weak parent motif; relative to: not given; direction: higher = stronger binding
Starting sequence: E2F8 docking peptide (human); FVPQRKLEVSTED
Variant	normalised enrichment score
V2A	0.43
V9A	0.02
R5A	0.231
E8A	0.133
R5K V9L	0.201
R5K V9F	-0.169
E12A	0.152
S10A	0.414

Mixed results
Molecule	target	assay	system	conditions	scale	endpoint	result
PhoQ, residues 284 288 289 292 302 303 NLSRDF	PhoP, residues 12 14 15 18 19 VHSCL (Escherichia coli, UniProt P23836)	Sort-seq, refers to: YFP reporter	E. coli	PhoQ-PhoP variant library, with: 10 µM Mg2+	relative to: high Mg2+ state, higher = stronger signaling	fold induction	7.06

Repeated from above (series 1):
Strand	log2 enrichment
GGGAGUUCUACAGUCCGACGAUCUCCUGUGCUACACAUCGUAUGUACCGAAUCGGGGUUUUUUUGGGGAAAAAGGGGUGGGGAAAGUAUUAUGUUACGCCGUUCGGAUCUGCAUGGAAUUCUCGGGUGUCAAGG	0.729
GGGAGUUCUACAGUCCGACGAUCUCCUGUGCUACACAUCGUAUGUACCGAAUCGGGGAAAAAAAGGGGUGGGGUUUUUGGGGAAAGUAUUAUGUUACGCCGUUCGGAUCUGCAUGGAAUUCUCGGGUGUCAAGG	0.708
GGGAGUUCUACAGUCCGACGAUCUGGGAGGUGGAUUUUGUUUAUUUUUUUAGCUCAUUUCCAGGGGUGGGAAUUUUUUUUUAAUAUGGGUCAUGAAUAAAGUUGUUUUUGAAAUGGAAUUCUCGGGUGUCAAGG	0.217
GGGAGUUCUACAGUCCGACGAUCCUCAAGUCCUGUGCUACACAUCGUAUGUACCGAAUCGGGGUUGGUUGGGUUGGGAAAGUAUUAUGUUACGCCGUUCGGAUCUGCACUUCCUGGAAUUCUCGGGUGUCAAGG	0.866
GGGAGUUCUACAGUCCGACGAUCUUAAGGAAGGACACUGAGUCAUGCACAAGUCCUUGCCUUCUUGGUGCCCCUCGGAAAGCACAAGACCCCUCCUCUGCUGGGUGUGAUCAAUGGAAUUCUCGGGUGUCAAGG	-0.0827
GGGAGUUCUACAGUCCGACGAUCCCUCAAGUCCUGUGCUACACAUCGUAUGUACCGAAUCGGUGGAAAGGAAAGGAAAGUAUUAUGUUACGCCGUUCGGAUCUGCACUUCCAGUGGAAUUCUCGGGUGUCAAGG	0.0951
